# Assay results of several laboratories.
# Each numbered part is a random draw from the data of one study; scales do not carry over between parts.

# Series 1
# Target: Sal-like protein 4, full length isoform A (SALL4, Homo sapiens, UniProt Q9UJQ4, residues 1-1053)
# Chain of UniProt Q9UJQ4 (whole entry, looked up): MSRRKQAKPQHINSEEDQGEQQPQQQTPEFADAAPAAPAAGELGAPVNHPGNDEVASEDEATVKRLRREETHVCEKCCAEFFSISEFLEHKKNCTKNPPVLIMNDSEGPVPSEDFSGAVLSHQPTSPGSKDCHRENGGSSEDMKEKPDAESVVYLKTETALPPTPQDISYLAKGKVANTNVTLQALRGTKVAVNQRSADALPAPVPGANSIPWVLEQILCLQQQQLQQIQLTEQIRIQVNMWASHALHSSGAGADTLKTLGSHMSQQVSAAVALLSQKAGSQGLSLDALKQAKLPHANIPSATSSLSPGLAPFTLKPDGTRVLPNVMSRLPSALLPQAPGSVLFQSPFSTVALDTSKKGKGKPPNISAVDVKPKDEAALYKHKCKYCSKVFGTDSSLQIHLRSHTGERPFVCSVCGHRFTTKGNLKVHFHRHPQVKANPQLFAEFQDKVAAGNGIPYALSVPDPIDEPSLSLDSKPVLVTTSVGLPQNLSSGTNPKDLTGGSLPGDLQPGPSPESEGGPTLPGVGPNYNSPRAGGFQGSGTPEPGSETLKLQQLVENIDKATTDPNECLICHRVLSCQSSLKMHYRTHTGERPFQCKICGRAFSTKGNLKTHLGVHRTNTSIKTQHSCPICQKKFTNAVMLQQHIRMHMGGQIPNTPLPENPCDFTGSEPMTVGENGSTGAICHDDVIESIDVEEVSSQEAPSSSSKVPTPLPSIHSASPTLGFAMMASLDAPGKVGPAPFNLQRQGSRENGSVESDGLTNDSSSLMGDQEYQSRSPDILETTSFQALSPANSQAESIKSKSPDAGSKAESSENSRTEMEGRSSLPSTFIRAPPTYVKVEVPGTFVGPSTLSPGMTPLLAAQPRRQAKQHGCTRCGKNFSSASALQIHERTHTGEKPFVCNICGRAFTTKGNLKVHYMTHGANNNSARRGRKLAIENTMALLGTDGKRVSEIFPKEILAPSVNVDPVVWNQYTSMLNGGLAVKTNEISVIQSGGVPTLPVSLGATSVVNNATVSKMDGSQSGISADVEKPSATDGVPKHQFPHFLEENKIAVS
# Technique: universal PBM
# Form: double-stranded DNA, one strand shown
# Matrix: in vitro
# Tested at: 600 nM
# Setting: 8-mer, flanks averaged, mean of replicates
# Reading: higher = stronger binding
Oligonucleotide,E-score
ACTGCCAT,0.0718
GGCCCGCC,-0.355
ATTGCGTG,-0.0169
TGATTGAA,0.208
ACCAGGTG,-0.304
TCCGGGAA,-0.075
TCAACGCA,0.0362
AGAAATTC,0.044

# Series 2
# Target: Phosphate system positive regulatory protein PHO4, full length, GST-tagged (PHO4, Saccharomyces cerevisiae, UniProt P07270, residues 1-312)
# Technique: competition protein-binding microarray
# Form: double-stranded DNA, one strand shown
# Matrix: in vitro
# Tested at: 2 µM
# Setting: whole 60-bp probe, lowest competitor level
# With: Cbf1 competitor, 0.05 µM
# Reading: higher = stronger binding
# All sequences stand within: … GTCTTGATTCGCTTGACGCTGCTG
# Residues (chain): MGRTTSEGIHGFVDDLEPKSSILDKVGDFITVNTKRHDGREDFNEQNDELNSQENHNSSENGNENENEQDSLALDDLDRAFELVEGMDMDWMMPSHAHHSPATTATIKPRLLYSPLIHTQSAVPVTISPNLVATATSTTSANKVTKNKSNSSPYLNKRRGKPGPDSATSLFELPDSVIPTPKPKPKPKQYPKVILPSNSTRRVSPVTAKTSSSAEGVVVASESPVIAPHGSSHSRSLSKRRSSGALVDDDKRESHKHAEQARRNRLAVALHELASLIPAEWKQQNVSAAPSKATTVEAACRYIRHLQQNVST
Oligonucleotide,fluorescence intensity [a.u.]
TACCAGAATTGTGAGAACATGACAAAACCAACTACG,5690
AAATTACTAAGTTGTCCCGTGGGTGACGCCGTATGA,8540
CTTCTGTAAATTTGTACTGTGGGTGGACGCGCCCCG,3930
AAGGGATGGTGGCGTCACATGGGTGGTCCAAAGCAA,8690
GTCTTGTCTCATTTTCACGTGAGGTTCCCCACTTCA,9000
AAAGCGGTAATTTGCTCGGTGGGTGCAGATATCTAT,3890
ATTCACTTGTGCGGCCACGTGCGGATGAATAATAAA,17200
TGCGCAACAACTTGTCACCGGACTTTATGTCTAGAA,2990

# Series 3
# Target: Hepatocyte nuclear factor 3-alpha (Foxa1, Mus musculus, UniProt P35582, residues 1-468, full length assumed)
# Technique: EMSA with sequencing
# Form: double-stranded DNA, one strand shown
# Matrix: in vitro
# Tested at: 10 and 20 nM
# Setting: whole designed probe, mean of two concentrations, ends assumed
# Relative to: negative control set to 0
# Reading: higher = stronger binding
# All sequences stand within: GTGAGCGGTGCCCATTGATGGGGAAC … TTTCACTGGGATCGTGGGGAC
# Target sequence (chain): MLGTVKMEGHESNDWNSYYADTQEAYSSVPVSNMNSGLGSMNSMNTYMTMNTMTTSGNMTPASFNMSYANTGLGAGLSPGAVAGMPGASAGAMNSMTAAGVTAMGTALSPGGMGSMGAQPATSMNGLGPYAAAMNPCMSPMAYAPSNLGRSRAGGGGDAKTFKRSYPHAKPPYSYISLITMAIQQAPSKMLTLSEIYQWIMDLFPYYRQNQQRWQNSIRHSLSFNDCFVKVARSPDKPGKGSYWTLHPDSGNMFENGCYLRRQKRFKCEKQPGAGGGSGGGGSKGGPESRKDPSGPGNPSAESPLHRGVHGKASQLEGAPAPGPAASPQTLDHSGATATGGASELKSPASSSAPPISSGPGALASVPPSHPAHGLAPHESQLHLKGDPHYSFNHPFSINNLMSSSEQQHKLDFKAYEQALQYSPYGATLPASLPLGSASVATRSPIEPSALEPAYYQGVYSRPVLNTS
Oligonucleotide,normalised bound fraction
GAAACTGCTAATGATGAACCATTCTGAATGCAAGCTTCCATTTACTTTACAGTACTGGATTTCTCTATGGGCCTACAGGAATGTATGGCAAAGTAATTTAGGAAACAGATAAGTGAAATAGGTCATAAGGATCTGTAATTAATTTCTCAATTTCTTCATTGTATCTGTAATCAATTTCTCAATTTCTTCATTG,-0.0292 ratio
TTTAGTACTTTAAAATTTTCCAAAGTGCTTTTCCTTGTCTTATTATAACAATTGCCAGCATTTGGTCAGCACTCTAGAGGTTATAAAGTACTTAGAGTACACTGTCTCCTATGACATCACAGCAATGCTGTGGGTTATTATTACTTGACTCATTTTGCAGGCAAGGAAGCTAAGGTTCAGGAATGCTAAATGA,-0.0216 ratio
GGCTGTTTAGGTAGCTGGCAGGAAGTAGTATGTGTCTCCAGAGCATAAAATTGGCCGCAAAGTAGGTAGGGCCTATGAAAATACTGATGTAATGTAAACATTGTATTTCTAAACTATTTACAAGGTCATCCCTACCCTACATGAGAGGTCAGCTCTACCACTAAGAGGTCCCACATGGACTTCTACAATATTC,0.479 ratio
GCTCACGCAGAAATGCATTGGAATGTCAGGAAATTGTGTGTATTTGATGTATTTTACCTGTTGCCTAGAGAGCCCACACAGTGATGCAGGTGCCTGTTTACATTGGCTGATTGCCCGGACTTTGGAAATGCAATTATCCCCCACCACCCCCTCAGCCACTTTCTCCAGCGGACTAGGAGGGGCTGAGTGGTGC,0.249 ratio
GTGTGTGCGCGCGCGTGTGTGTGTGTTTTCTTAAGCCGGGCTATTCAAACCCTGCTGCAATTCTCCGGTAAAGGGGCACAATGATTCATTAATGCAAATAAACGGATTGCAAACGGCGCGGTTCGCGCACTTTGCAGCCGGCCCGGTGGAGCAGCCAGTGCCGGATTTCTCCCTTTTTTTGCAGATCTGCAGA,0.396 ratio
ATCTTCCCCCTCTTCCTTGCCCCACCAGCTCACCTACGGGGGTTATTTGCAGATAGGAAAATAAATAAAGCCGGCATTCGTTAACGCAGTTCACGCGCATACTGCTGTTTGCTCTGCATGAATCATGGTCCTTACGCGAGGCGTGGCTCCGGGAGAGCAAAGCACCGTGTCAGGCGCATGATCCGGGGTGGCC,0.361 ratio
ATGAAACTGGTCCCTGGTGCCAAAAAGGTTGGGAACTGCTGACGTAGTGGATAAAGGGAACAGAGGTAAATAGACATTTAGTGTGAGGTTTCAAGATTACTTAGCTACGAATTAGGCTGTGTTTGCAGATTGCTGTCACTTTAGGTGTCAGAGGTTAAAATCTCTGGTGTCCTTGTTTCTGTCTCTCCTGTTG,0.111 ratio
TCTAAATCTAATCAATTAAAATGGCTTTTTATAAGTAGCTGGATTTTTATGACTGCAAATATTGCTTTCCTGCTTATTTTCCTTCTAATCCTGTGTTTACTTAGCTAGTTCAAGGAGTCAAGGCAGTACAGTGTATATAAGGAAGGGCTTTGGCATTAGTCAACTCTGGGTCATATCCTAGTTTCCCAGTTAC,0.461 ratio

# Further values, each from its own experiment
Compound,organism,effect on,tested at,time,setting,endpoint,result
CCN1CCN(c2cc3c(cc2F)c(=O)c(C(=O)O)cn3C2CC2)CC1,Sarcocystis neurona,parasite growth,10 µM,96 h,first screen,inhibition,16.6%
